Results of several laboratories.
Each line is one published result; not all experiments were run side by side. “And” joins repeats or separate records; there may be more than shown. ± marks the error that the study gave.
YAP1 WW1 domain: Transcriptional coactivator YAP1, WW1 domain (YAP1, Homo sapiens, UniProt P46937)
CFTR del508-508: Cystic fibrosis transmembrane conductance regulator (CFTR, Homo sapiens, UniProt P13569, del508-508)
Kelch domain-containing protein 2: Kelch domain-containing protein 2 (UniProt Q9Y2U9)
Chain of UniProt Q9Y2U9 (whole entry, looked up): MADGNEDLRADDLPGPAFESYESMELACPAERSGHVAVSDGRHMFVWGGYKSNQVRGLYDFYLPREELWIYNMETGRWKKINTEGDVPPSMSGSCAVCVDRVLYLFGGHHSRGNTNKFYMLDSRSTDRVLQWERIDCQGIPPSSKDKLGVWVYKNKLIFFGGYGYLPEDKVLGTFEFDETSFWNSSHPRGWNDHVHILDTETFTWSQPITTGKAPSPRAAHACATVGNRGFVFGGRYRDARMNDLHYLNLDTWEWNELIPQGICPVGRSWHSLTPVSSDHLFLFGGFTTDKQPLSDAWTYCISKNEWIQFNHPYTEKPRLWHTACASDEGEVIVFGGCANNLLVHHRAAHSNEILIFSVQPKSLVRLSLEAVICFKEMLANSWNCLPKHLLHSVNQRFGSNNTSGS
KCNT1: Potassium channel subfamily T member 1 (KCNT1, Homo sapiens, UniProt Q5JUK3)
Chain of UniProt Q5JUK3 (whole entry, looked up): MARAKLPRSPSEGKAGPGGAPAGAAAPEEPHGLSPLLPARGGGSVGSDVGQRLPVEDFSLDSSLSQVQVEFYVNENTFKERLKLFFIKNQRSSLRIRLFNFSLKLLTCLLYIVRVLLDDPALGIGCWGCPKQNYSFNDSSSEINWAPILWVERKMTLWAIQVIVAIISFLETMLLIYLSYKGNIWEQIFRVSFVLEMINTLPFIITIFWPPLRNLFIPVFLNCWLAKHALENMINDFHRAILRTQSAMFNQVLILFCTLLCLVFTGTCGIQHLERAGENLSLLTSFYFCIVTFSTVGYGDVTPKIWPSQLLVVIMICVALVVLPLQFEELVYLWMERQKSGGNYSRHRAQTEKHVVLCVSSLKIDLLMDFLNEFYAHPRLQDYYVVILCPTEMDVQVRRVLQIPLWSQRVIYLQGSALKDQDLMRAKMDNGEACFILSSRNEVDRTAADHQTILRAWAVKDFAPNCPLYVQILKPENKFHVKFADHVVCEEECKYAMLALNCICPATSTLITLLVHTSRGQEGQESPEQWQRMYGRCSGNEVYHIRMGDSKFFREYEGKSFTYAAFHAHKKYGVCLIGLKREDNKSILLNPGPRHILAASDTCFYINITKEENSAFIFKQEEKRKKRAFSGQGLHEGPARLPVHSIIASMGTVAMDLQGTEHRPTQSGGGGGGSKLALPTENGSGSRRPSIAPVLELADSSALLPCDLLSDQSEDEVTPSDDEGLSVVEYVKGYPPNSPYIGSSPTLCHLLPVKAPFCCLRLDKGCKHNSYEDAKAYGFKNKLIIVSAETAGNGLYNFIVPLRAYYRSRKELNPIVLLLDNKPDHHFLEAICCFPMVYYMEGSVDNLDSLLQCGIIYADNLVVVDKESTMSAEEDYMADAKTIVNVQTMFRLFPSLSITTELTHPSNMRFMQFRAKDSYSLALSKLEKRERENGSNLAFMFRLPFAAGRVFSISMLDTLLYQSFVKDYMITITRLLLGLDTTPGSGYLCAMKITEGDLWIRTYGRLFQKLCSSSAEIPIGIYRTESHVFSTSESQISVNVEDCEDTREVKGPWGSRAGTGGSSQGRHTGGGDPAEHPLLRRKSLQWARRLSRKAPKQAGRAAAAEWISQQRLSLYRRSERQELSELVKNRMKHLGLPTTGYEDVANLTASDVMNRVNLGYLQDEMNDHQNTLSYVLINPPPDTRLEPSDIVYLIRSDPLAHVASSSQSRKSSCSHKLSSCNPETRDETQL
T1: T-box antiterminator RNA; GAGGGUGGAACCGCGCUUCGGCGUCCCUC
Chain of UniProt Q9NZ08 (whole entry, unmodified, looked up): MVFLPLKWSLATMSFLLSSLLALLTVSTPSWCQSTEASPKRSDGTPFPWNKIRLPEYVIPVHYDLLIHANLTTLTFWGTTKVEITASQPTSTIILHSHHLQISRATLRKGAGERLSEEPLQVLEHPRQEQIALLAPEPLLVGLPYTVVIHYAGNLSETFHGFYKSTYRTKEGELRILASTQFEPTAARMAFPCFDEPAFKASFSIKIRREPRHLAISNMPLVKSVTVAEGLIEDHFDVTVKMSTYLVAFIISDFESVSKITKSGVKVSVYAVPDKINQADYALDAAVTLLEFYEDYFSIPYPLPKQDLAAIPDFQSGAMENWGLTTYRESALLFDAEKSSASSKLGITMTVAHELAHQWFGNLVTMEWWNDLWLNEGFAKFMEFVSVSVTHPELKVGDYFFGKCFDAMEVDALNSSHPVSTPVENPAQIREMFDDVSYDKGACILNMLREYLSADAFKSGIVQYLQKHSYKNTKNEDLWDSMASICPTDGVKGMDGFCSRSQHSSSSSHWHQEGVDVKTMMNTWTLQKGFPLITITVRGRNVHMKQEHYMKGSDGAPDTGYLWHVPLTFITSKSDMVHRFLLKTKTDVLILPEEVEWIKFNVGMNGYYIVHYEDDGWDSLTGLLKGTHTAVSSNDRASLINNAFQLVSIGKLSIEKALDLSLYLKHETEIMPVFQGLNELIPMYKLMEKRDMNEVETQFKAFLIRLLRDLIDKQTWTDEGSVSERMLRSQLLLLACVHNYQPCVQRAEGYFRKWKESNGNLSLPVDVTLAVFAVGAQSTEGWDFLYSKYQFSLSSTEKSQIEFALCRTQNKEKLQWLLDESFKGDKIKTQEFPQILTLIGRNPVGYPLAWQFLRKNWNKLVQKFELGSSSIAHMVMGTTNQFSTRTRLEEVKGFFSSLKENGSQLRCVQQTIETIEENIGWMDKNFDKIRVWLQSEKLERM
Chain of UniProt Q8WXD0 (whole entry, looked up): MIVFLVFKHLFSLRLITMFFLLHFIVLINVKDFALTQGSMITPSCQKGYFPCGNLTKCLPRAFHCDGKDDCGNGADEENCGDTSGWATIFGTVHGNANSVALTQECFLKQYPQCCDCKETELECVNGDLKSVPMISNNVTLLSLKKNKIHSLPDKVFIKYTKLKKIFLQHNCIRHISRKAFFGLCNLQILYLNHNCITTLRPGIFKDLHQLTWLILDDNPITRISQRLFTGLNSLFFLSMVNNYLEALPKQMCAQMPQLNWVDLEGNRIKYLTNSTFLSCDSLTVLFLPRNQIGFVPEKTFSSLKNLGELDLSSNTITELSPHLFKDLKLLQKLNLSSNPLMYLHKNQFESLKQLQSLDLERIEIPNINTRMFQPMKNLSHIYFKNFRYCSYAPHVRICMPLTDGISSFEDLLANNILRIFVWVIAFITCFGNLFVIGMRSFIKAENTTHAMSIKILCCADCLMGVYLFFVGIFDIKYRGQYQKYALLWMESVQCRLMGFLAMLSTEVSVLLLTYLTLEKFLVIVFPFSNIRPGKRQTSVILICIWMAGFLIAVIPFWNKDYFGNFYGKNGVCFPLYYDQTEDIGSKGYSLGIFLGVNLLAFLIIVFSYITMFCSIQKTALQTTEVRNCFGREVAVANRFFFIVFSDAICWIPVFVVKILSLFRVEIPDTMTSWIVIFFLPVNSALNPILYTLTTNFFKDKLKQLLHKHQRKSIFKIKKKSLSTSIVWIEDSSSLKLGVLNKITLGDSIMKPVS
Chain of UniProt Q97SR4 (whole entry, looked up): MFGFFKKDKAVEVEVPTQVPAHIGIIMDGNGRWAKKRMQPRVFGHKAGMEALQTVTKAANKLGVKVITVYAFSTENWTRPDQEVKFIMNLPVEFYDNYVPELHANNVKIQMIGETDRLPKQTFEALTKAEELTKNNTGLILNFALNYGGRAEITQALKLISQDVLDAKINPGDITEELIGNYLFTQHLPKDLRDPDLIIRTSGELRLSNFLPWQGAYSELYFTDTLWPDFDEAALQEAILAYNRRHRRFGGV
Chain of UniProt P12081 (whole entry, unmodified, looked up): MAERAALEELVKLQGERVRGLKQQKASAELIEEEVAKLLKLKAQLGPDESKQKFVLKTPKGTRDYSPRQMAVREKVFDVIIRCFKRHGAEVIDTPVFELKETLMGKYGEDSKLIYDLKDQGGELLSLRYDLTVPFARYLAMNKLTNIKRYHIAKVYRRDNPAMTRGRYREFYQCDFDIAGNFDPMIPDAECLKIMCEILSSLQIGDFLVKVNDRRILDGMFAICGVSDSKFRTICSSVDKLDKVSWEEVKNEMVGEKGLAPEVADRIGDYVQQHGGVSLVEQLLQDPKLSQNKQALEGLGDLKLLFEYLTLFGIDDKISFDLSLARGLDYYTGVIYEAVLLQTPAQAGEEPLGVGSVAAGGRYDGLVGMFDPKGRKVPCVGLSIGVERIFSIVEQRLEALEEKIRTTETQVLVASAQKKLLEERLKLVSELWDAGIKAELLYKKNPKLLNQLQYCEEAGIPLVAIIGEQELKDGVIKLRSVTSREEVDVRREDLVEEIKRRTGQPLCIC
Chain of UniProt Q9NNX6 (whole entry, looked up): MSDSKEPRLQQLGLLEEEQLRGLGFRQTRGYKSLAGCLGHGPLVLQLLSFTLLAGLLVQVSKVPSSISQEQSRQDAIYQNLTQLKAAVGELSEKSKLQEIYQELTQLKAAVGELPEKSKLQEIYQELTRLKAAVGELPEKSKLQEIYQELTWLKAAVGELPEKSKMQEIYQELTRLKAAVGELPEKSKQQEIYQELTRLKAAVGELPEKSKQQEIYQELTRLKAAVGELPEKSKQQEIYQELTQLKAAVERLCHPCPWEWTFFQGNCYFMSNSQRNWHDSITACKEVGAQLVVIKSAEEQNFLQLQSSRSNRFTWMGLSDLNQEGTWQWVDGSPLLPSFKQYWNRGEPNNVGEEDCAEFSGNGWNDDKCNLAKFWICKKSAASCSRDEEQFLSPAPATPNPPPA

Substance	target	assay	test system	conditions	how to read	quantity	result
IINFEKE	Endoplasmic reticulum aminopeptidase 1 (ERAP1, Homo sapiens, UniProt Q9NZ08, F803R)	substrate	peptide	pH 8.0, 27 °C, mutant F803R, with: L-AMC, peptide activator 100 µM	–	K1/2 of L-AMC	0.35 ± 0.08 mM
COc1cc(/C=C/C(=O)CC(=O)/C=C/c2ccc(O)c(OC)c2)ccc1O	Protein kinase C epsilon type, C1B domain (PRKCE, Homo sapiens, UniProt Q02156)	–	buffer	5×1 µM, 1 h, 25 °C, protein excess	–	emission maximum	562 nm
Nc1ncnc2c1ncn2[C@@H]1O[C@H](COP(=O)(O)OP(=O)(O)OP(=O)(O)O)[C@@H](O)[C@H]1O	Histidine--tRNA ligase, cytoplasmic (HARS1, Homo sapiens, UniProt P12081, Y454S)	thermal stability, DSF	–	–	–	ΔTm	0.7 °C
LRHYLNLLTRORY (acetyl-Leu28, acetyl-Leu31)	neuropeptide Y receptor Y2 human	agonist	peptide, hY2-CHO	100 nM, 30 min, 37 °C, with: PAO 30 µM	reference: no unlabeled agonist	surface receptor depletion	49.5 ± 1.5%
CC(=O)c1ccc(NC(=O)OCC2OC(=O)NC2CN2CCN(c3ccccc3)CC2)cc1 (racemic)	T1, T-box antiterminator RNA	FRET binding titration	–	100 nM, 130 min, pH 6.5, 25 °C, NaCl 50 mM, single-site fit, with: MgCl2 5 mM	–	Kd	1800 nM
CC(C(=O)O)c1ccc(-c2ccccc2)c(F)c1 (centres unmarked)	Degenerin mec-4 (mec-4, Caenorhabditis elegans, UniProt P24612, A713T)	ion current, two-electrode voltage clamp	Xenopus oocytes coexpressing MEC-2	30 µM, -85 mV	reference: uninjected oocytes, positive inhibition, negative potentiation	current change	-3.7 µA
CC(C)C[C@H](NC(=O)[C@@H](NC(=O)[C@@H](N)[C@@H](C)O)C(C)C)C(=O)N1CCC[C@H]1C(=O)N1CCC[C@H]1C(=O)N1CCC[C@H]1C(=O)N1CCC[C@H]1C(=O)N[C@@H](Cc1ccc(O)cc1)C(=O)N[C@@H](CCCNC(=N)N)C(=O)N[C@@H](Cc1c[nH]cn1)C(=O)N[C@@H](CCCNC(=N)N)C(=O)N[C@@H](CC(N)=O)C(=O)O	YAP1 WW1 domain	binding, ITC	–	pH 7.0, 25 °C, WW1 domain	–	ΔG	-6.16 ± 0.05 kcal/mol
CC(=O)N[C@@H](CCC(=O)O)C(=O)N[C@@H](CC(N)=O)C(=O)N[C@@H](CCC(=O)O)C(=O)N[C@@H](CCC(N)=O)C(=O)N[C@H](C(=O)N[C@@H](CO)C(=O)N[C@@H](C)C(=O)N[C@H](C(=O)O)C(C)C)C(C)C	Tyrosine-protein phosphatase non-receptor type 13, PDZ2 domain (PTPN13, Homo sapiens, UniProt Q12923)	binding	–	–	–	koff	307 s⁻¹
COc1ccc(C(=O)NCCNc2nc3cc(C)cc(C)c3cc2C#N)nc1	CFTR del508-508	CFTR correction, corrector, iodide influx rate	FRT expressing YFP-H148Q/I152L	up to 25 µM, 16-20 h, 37 °C, with: forskolin 20 µM, genistein 50 µM	–	Vmax	88 µM/s
CC(C)C[C@H](NC(=O)[C@@H](NC(=O)[C@@H](N)[C@@H](C)O)C(C)C)C(=O)N1CCC[C@H]1C(=O)N1CCC[C@H]1C(=O)N1CCC[C@H]1C(=O)N1CCC[C@H]1C(=O)N[C@@H](Cc1ccc(O)cc1)C(=O)N[C@@H](C)C(=O)N[C@@H](Cc1c[nH]cn1)C(=O)N[C@@H](CCCNC(=N)N)C(=O)N[C@@H](CC(N)=O)C(=O)O	Transcriptional coactivator YAP1, WW2 domain (YAP1, Homo sapiens, UniProt P46937)	binding, ITC	–	pH 7.0, 25 °C, WW2 domain	–	ΔH	-8.61 ± 0.07 kcal/mol
Cc1cc(=O)oc2cc(NC(=O)[C@@H](N)CC(C)C)ccc12	Endoplasmic reticulum aminopeptidase 1 (ERAP1, Homo sapiens, UniProt Q9NZ08, I681R)	hydrolysis of compound, substrate	–	varied from 0 µM, 5 min, pH 8.0, 27 °C, mutant I681R, no peptide activator	–	Vmax	210 ± 8 nmol/min/µg
FC(F)(F)c1cc(Nc2nc(Cl)nc(Cl)n2)cc(C(F)(F)F)c1	CD209 antigen (CD209, Homo sapiens, UniProt Q9NNX6)	activator, plate-based HRP	–	500 µM, overnight, 4 °C or RT	reference: DMSO control	HRP binding	≥ 50%
FVFGG	Kelch domain-containing protein 2	native mass spectrometry	peptide, 200 mM ammonium acetate	20 µM Kelch domain-containing protein 2, pH 7	reference: total Kelch domain-containing protein 2 signal	fraction of protein bound	0.5%
CC1(Cc2ccccc2)NC(=O)C(C(=O)Nc2ccc(C3CCCCC3)cc2)=C1O (centres unmarked)	Isoprenyl transferase (Streptococcus pneumoniae serotype 4, UniProt Q97SR4)	binding, competitor	–	with: 2 µM fluorescent FPP probe	–	fluorescent probe displacement	no effect
YSLAAVVLGLVQSLNRQRQKQLLNE	Calmodulin-1 (Calm1, Rattus norvegicus, UniProt P0DP29, D130A/D94A)	Ca2+ dissociation, stopped-flow quin-2 fluorescence	peptide	2 µM, pH 7.4, 22 °C, with: Ca2+-calmodulin complex	–	koff1	3.46 s⁻¹ and 3.5 s⁻¹
CC(C)[C@H](NC(=O)[C@@H](N)[C@@H](C)O)C(=O)N[C@@H](C)C(=O)N1CCC[C@H]1C(=O)N1CCC[C@H]1C(=O)N1CCC[C@H]1C(=O)N1CCC[C@H]1C(=O)N[C@@H](Cc1ccc(O)cc1)C(=O)N[C@@H](CCCNC(=N)N)C(=O)N[C@@H](Cc1c[nH]cn1)C(=O)N[C@@H](CCCNC(=N)N)C(=O)N[C@@H](CC(N)=O)C(=O)O	YAP1 WW1 domain	binding, ITC	–	pH 7.0, 25 °C, WW1 domain	–	ΔG	-5.94 ± 0.13 kcal/mol

Substance	target	assay	test system	conditions	how to read	quantity	result
CN(C)c1cccc(Nc2nc3c(s2)CCCc2nc(NC(=O)C(C)(C)C)sc2-3)c1	CFTR del508-508	iodide influx, corrector, YFP halide quenching	FRT cells expressing YFP-H148Q/I152L	16 to 20 h, 37 °C, genistein 50 µM, with: forskolin 20 µM	–	Vmax	336 µM/s
meso-zeaxanthin	Retinol-binding protein 3 (RBP3, Bos taurus, UniProt P12661)	SPR	–	pH 7.4, 25 °C	–	koff	0.09 ± 0.6 s⁻¹
CSCC[C@H](NC(=O)[C@H](CCC(=O)O)NC(=O)[C@@H]1CCCN1C(=O)[C@@H](NC(=O)[C@@H]1CCCN1)[C@@H](C)O)C(=O)N[C@@H](CCCNC(=N)N)C(=O)N[C@@H](CCC(=O)O)C(=O)N[C@@H](CCCCN)C(=O)N[C@@H](CC(C)C)C(=O)N[C@H]1CSSC[C@@H]2NC(=O)[C@@H](NC(=O)[C@H](Cc3ccc(O)cc3)NC(=O)[C@H](CCCNC(=N)N)NC(=O)[C@H](C)NC(=O)[C@@H]3CCCN3C(=O)[C@H](CC(N)=O)NC(=O)[C@@H](NC(=O)[C@H](C)NC(=O)[C@H](C)NC(=O)[C@H](C)N)[C@@H](C)O)CSSC[C@H](NC(=O)CNC(=O)[C@H](CO)NC(=O)[C@H](CC(C)C)NC2=O)C(=O)N[C@@H]([C@@H](C)O)C(=O)N[C@@H](CCC(N)=O)C(=O)N[C@@H](CCC(N)=O)C(=O)N[C@@H](CC(=O)O)C(=O)N[C@@H](CC(C)C)C(=O)N[C@@H](CC(C)C)C(=O)N[C@@H]([C@@H](C)O)C(=O)N[C@@H](CC(C)C)C(=O)N[C@H](C(=O)N2CCC[C@H]2C(=O)N[C@@H](Cc2ccc(O)cc2)C(=O)O)CSSC[C@@H](C(=O)NCC(=O)NCC(=O)N2CCC[C@H]2C(=O)N[C@@H](CCCNC(=N)N)C(=O)N[C@@H](Cc2c[nH]c3ccccc23)C(=O)N[C@@H](CO)C(=O)N[C@H](C(=O)N[C@@H](CCC(=O)O)C(=O)N[C@@H](C)C(=O)O)[C@@H](C)O)NC(=O)[C@H](C(C)C)NC(=O)[C@H](CCCNC(=N)N)NC(=O)[C@H](C(C)C)NC(=O)[C@H](CC(C)C)NC(=O)[C@H](C)NC(=O)[C@H](CCCNC(=N)N)NC(=O)[C@H](C(C)C)NC(=O)[C@H](Cc2ccccc2)NC(=O)[C@H](Cc2c[nH]cn2)NC(=O)[C@H](Cc2c[nH]cn2)NC(=O)CNC1=O	Relaxin receptor 2 (RXFP2, Homo sapiens, UniProt Q8WXD0)	cAMP production, agonist, CAMYEL BRET	HEK293 expressing RXFP2	5 min, 37 °C	reference: forskolin 10 µM	Emax	65.9 ± 3.94%
Nc1ncnc2c1ncn2[C@@H]1O[C@H](COP(=O)(O)OP(=O)(O)OP(=O)(O)O)[C@@H](O)[C@H]1O	Sodium/potassium-transporting ATPase subunit alpha-1 (ATP1A1, Canis lupus familiaris, UniProt P50997)	dissociation from E1 state	dog	4 °C, with: 200 mM Na+, NMG+ replacement, total 500 mM	–	koff	0.85 ± 0.24 s⁻¹
ternatin-4	Elongation factor 1-alpha 1, ternary complex on ribosome (EEF1A1, Homo sapiens, UniProt P68104)	smFRET chase	–	10 µM, 25 °C	–	residence time	56 s
Nc1cc(COc2c(Cl)cc(C[C@H](N)C(=O)O)cc2Cl)c2oc(-c3ccccc3)nc2c1	Large neutral amino acids transporter small subunit 1 (SLC7A5, Homo sapiens, UniProt Q01650)	leucine uptake, inhibitor	HEK293 expressing human LAT1	20 µM, 30 min, read 60 min after washout, with: L-[14C]leucine 1 µM	reference: untreated	remaining activity	~60%
CSCC[C@H](NC(=O)[C@@H]1CCCN1C(=O)[C@@H](NC(=O)[C@H](Cc1ccc(O)cc1)NC(=O)[C@H](C)NC(=O)[C@@H]1CCCN1C(=O)[C@@H]1CCCN1C(=O)[C@@H]1CCCN1C(=O)[C@H](CO)NC(=O)[C@H](Cc1c[nH]cn1)NC(=O)CN)[C@@H](C)O)C(=O)N[C@@H](CO)C(=O)O	YAP1 WW1 domain	binding, ITC	–	pH 7.0, 25 °C, WW1 domain	–	ΔH	-2.94 ± 0.17 kcal/mol
NRGFVFGG	Kelch domain-containing protein 2	native mass spectrometry	peptide, 200 mM ammonium acetate	20 µM Kelch domain-containing protein 2, pH 7	reference: total Kelch domain-containing protein 2 signal	fraction of protein bound	0.4%
Cc1cc(C)c2cc(C#N)c(N3CCN(C(=O)c4cccnc4)CC3)nc2c1	CFTR del508-508	ΔF508-CFTR correction, corrector	FRT	up to 25 µM, 37 °C, with: forskolin 20 µM + genistein 50 µM	–	EC50	inactive
O=S(=O)(Sc1ccccc1Cl)c1ccccc1Cl	tubulin	colchicine binding, [3H]colchicine binding	–	50 µM, 10 min, 37 °C, with: [3H]colchicine 5.0 µM	–	inhibition	31 ± 4%
GSRPQRLLWQTAVRHITEQRFIHGH	Calmodulin-1 (Calm1, Rattus norvegicus, UniProt P0DP29, D21A/D57A)	Ca2+ dissociation, stopped-flow quin-2 fluorescence	peptide	2 µM, pH 7.4, 22 °C, with: Ca2+-calmodulin complex	–	koff1	4.18 ± 1.04 s⁻¹
Nc1ccc(-c2nc([C@H]3CCc4cc(-c5cc(Cl)ccc5-n5cnnn5)cc(=O)n43)c(F)[nH]2)c(F)n1	Coagulation factor XI (F11, Homo sapiens, UniProt P03951)	factor XI coagulant activity	human, blood	oral, 250 mg once daily, 14 days, fed	–	maximum inhibition	92 ± 2.5%
O=S(=O)(c1cccc2cccnc12)N1CC(c2nc(-c3ccc(F)cc3)no2)C1	KCNT1	ion current, activator, automated patch clamp	CHO	30 µM	reference: bepridil 60 µM	efficacy	100%
O=C(Nc1cccc(C(F)(F)F)c1)c1ccccc1NC(=O)C1CCCCC1	Relaxin receptor 1 (RXFP1, Homo sapiens, UniProt Q9HBX9)	cAMP level, agonist, HTRF	HEK293 cells expressing RXFP1	–	reference: forskolin 57.5 µM as 100%	efficacy	80%
O=S(=O)(c1ccc(F)cc1)N1CC(c2nc(-c3ccsc3)no2)C1	KCNT1	Tl+ flux, inhibitor	HEK293 expressing KCNT1	30 µM	–	activity class	inactive
CC(C)C[C@H](NC(=O)[C@@H](NC(=O)[C@@H](N)[C@@H](C)O)C(C)C)C(=O)N1CCC[C@H]1C(=O)N1CCC[C@H]1C(=O)N1CCC[C@H]1C(=O)N1CCC[C@H]1C(=O)N[C@@H](Cc1ccc(O)cc1)C(=O)N[C@@H](CCCNC(=N)N)C(=O)N[C@@H](Cc1c[nH]cn1)C(=O)N[C@@H](C)C(=O)N[C@@H](CC(N)=O)C(=O)O	YAP1 WW1 domain	binding, ITC	–	pH 7.0, 25 °C, WW1 domain	–	ΔG	-6.08 ± 0.06 kcal/mol

For quick reference, copied from above:
Substance	target	assay	test system	conditions	how to read	quantity	result
CC(C)C[C@H](NC(=O)[C@@H](NC(=O)[C@@H](N)[C@@H](C)O)C(C)C)C(=O)N1CCC[C@H]1C(=O)N1CCC[C@H]1C(=O)N1CCC[C@H]1C(=O)N1CCC[C@H]1C(=O)N[C@@H](Cc1ccc(O)cc1)C(=O)N[C@@H](CCCNC(=N)N)C(=O)N[C@@H](Cc1c[nH]cn1)C(=O)N[C@@H](CCCNC(=N)N)C(=O)N[C@@H](CC(N)=O)C(=O)O	YAP1 WW1 domain	binding, ITC	–	pH 7.0, 25 °C, WW1 domain	–	ΔG	-6.16 ± 0.05 kcal/mol
YSLAAVVLGLVQSLNRQRQKQLLNE	Calmodulin-1 (Calm1, Rattus norvegicus, UniProt P0DP29, D130A/D94A)	Ca2+ dissociation, stopped-flow quin-2 fluorescence	peptide	2 µM, pH 7.4, 22 °C, with: Ca2+-calmodulin complex	–	koff1	3.46 s⁻¹ and 3.5 s⁻¹
CC(C)C[C@H](NC(=O)[C@@H](NC(=O)[C@@H](N)[C@@H](C)O)C(C)C)C(=O)N1CCC[C@H]1C(=O)N1CCC[C@H]1C(=O)N1CCC[C@H]1C(=O)N1CCC[C@H]1C(=O)N[C@@H](Cc1ccc(O)cc1)C(=O)N[C@@H](CCCNC(=N)N)C(=O)N[C@@H](Cc1c[nH]cn1)C(=O)N[C@@H](C)C(=O)N[C@@H](CC(N)=O)C(=O)O	YAP1 WW1 domain	binding, ITC	–	pH 7.0, 25 °C, WW1 domain	–	ΔG	-6.08 ± 0.06 kcal/mol
Nc1ccc(-c2nc([C@H]3CCc4cc(-c5cc(Cl)ccc5-n5cnnn5)cc(=O)n43)c(F)[nH]2)c(F)n1	Coagulation factor XI (F11, Homo sapiens, UniProt P03951)	factor XI coagulant activity	human, blood	oral, 250 mg once daily, 14 days, fed	–	maximum inhibition	92 ± 2.5%
